Published values from different studies.
Compare with care: the assays were run in different laboratories.
Cell line: PANC-1

c1ccc(-c2cc(-c3ccc(-n4cc(-c5ccc(-c6cccs6)s5)nn4)cc3)cc(-c3ccccn3)n2)nc1 gave an IC50 of 2.22 µM (cell growth or viability, MTS; 72 h).
With Cc1nc(Nc2ncc(C(=O)Nc3c(C)cccc3Cl)s2)cc(N2CCN(CCOC(=O)[C@@H](N)CS)CC2)n1 the IC50 was > 100 µM (cell growth or viability, MTT; 72 h).
N=C(N/N=C/c1cc(C(F)(F)F)cc(C(F)(F)F)c1)N/N=C/c1cc(C(F)(F)F)cc(C(F)(F)F)c1 gave an IC50 of 58.2 µM (cell growth or viability, crystal violet; 72 h).
With c1ccc(-c2cc(-c3ccc(-n4cc(-c5ccc6sc7ccccc7c6c5)nn4)cc3)cc(-c3ccccn3)n2)nc1 the IC50 was 0.78 µM (cell growth or viability, MTS; 72 h).
With N=C(N/N=C/c1ccc(F)cc1)N/N=C/c1ccc(F)cc1 the IC50 was 28.6 µM (cell growth or viability, crystal violet; 72 h).
Oc1ccc(-c2csc(Cc3ccccc3)n2)c(O)c1 has an IC50 of 32.8 µM (cell growth or viability, resazurin; 72 h).
With COc1ccc2c(c1)C(=C1Nc3ccccc3C1=NOCC(O)CO)C(=O)N2 (centres unmarked) the IC50 was 0.76 µM (cell growth or viability, MTS; 48 h).
N=C(N/N=C/c1ccccc1)N/N=C/c1ccccc1 gave an IC50 of 29.6 µM (cell growth or viability, crystal violet; 72 h).
C=C1CCC(O)C(C)=CCC2C1CC2(C)O (centres unmarked) gave an IC50 of > 50 µM (cell growth or viability, CCK-8; 72 h).
For Cc1cc(C)cc(/C=N/NC(=N)N/N=C/c2cc(C)cc(C)c2)c1, the IC50 was 56.2 µM (cell growth or viability, crystal violet; 72 h).
Cc1c(-c2cccc(C3=NCCN3)c2)oc(-c2cccc(C3=NCCN3)c2)c1C has an IC50 of 0.5 µM (cell growth or viability, SRB).
C=C1CCC(O)C(C)=CCC2C1CC2(C)C(=O)C=CC(C)(C)O (centres unmarked) has an IC50 of ~19.1 µM (cell growth or viability, CCK-8; 72 h).
With N=C(N/N=C/c1cc2ccccc2[nH]1)N/N=C/c1cc2ccccc2[nH]1 the IC50 was 7.01 µM (cell growth or viability, crystal violet; 72 h).
For CCCCn1cc(C(=O)O)c(=O)c2cc(F)c(Nc3ccc(OC)cc3)c([N+](=O)[O-])c21, the IC50 was > 200 µg/mL (cell growth, sulforhodamine B; 72 h).
CCC(CC)c1nc(-c2ccc(O)cc2O)cs1 gave an IC50 of 8.36 µM (cell growth or viability, resazurin; 72 h).
With Cc1nc(Nc2ncc(C(=O)Nc3c(C)cccc3Cl)s2)cc(N2CCN(CCOC(=O)CCCCCCCCCCN)CC2)n1 the IC50 was 5.92 µM (cell growth or viability, MTT; 72 h).
With C=C1CC(O)CC(C)=CCC2C1CC2(C)O (centres unmarked) the IC50 was > 50 µM (cell growth or viability, CCK-8; 72 h).
For N=C(N/N=C/c1cncnc1)N/N=C/c1cncnc1, the IC50 was 114 µM (cell growth or viability, crystal violet; 72 h).
CCCCCCCCCCCCCCCC(=O)OCCN1CCN(c2cc(Nc3ncc(C(=O)Nc4c(C)cccc4Cl)s3)nc(C)n2)CC1 gave an IC50 of 0.716 µM (cell viability, MTT; 72 h).
COc1cccc2c1C(=O)c1c(O)c3c(c(O)c1C2=O)CC(O)(C(CO)=NNC(=O)CCCCC(=O)NNC(=O)CCCc1ccc(I)cc1)CC3OC1CC(N)C(O)C(C)O1 (centres unmarked) has an IC50 of 2.18 µM (cell growth or viability, resazurin; 72 h).

For quick reference, copied from above:
With Cc1nc(Nc2ncc(C(=O)Nc3c(C)cccc3Cl)s2)cc(N2CCN(CCOC(=O)[C@@H](N)CS)CC2)n1 the IC50 was > 100 µM (cell growth or viability, MTT; 72 h).
N=C(N/N=C/c1cc(C(F)(F)F)cc(C(F)(F)F)c1)N/N=C/c1cc(C(F)(F)F)cc(C(F)(F)F)c1 gave an IC50 of 58.2 µM (cell growth or viability, crystal violet; 72 h).
